Measured values of several laboratories.
Each line is one published result; not all experiments were run side by side.
PIK3CA E542K: Phosphatidylinositol 4,5-bisphosphate 3-kinase catalytic subunit alpha isoform (PIK3CA, Homo sapiens, UniProt P42336, E542K)
PIK3CA Q546K: Phosphatidylinositol 4,5-bisphosphate 3-kinase catalytic subunit alpha isoform (PIK3CA, Homo sapiens, UniProt P42336, Q546K)
PIK3CA H1047L: Phosphatidylinositol 4,5-bisphosphate 3-kinase catalytic subunit alpha isoform (PIK3CA, Homo sapiens, UniProt P42336, H1047L)
PIK3CA E545K: Phosphatidylinositol 4,5-bisphosphate 3-kinase catalytic subunit alpha isoform (PIK3CA, Homo sapiens, UniProt P42336, E545K)

The remaining binding of `Nc1ncc2c(n1)-c1c([nH]c3ccc(C4=CCOCC4)cc13)CCC2` is reported as 92% (PIK3CA E542K; binding, competition with immobilised ligand; 1 µM).
`CCN1CCN(Cc2ccc(C(=O)Nc3ccc(C)c(NCc4cnc5[nH]ccc5c4OC)c3)cc2C(F)(F)F)CC1` gave a remaining binding of 94% (Phosphatidylinositol 4,5-bisphosphate 3-kinase catalytic subunit alpha isoform (PIK3CA, Homo sapiens, UniProt P42336, I800L); binding, competition with immobilised ligand; 1 µM).
For `CC(C)=CC1OC(C)(C)C2C=C3C(=O)C(Cl)=CC(O)C3C3C(O)C4OC4C(=O)C132` (centres unmarked), the remaining binding was 64% (PIK3CA Q546K; cell-free assay, competition with immobilised ligand; 10 µM).
`C=CC(=O)N1CCCC(n2c(=O)c3ncccc3n(Cc3ccc(Oc4ccccc4)cc3)c2=O)C1` (centres unmarked) gave a remaining binding of 56% (PIK3CA H1047L; cell-free assay, competition with immobilised ligand; 1 µM).
For `C=CC(=O)N1CCc2ccc(-n3c(=O)ccc4cnc5ccc(-c6cnn(C)c6)cc5c43)cc21`, the remaining binding was 52% (PIK3CA E545K; KINOMEscan; 1 µM; baseline: DMSO control).
With `COc1c(Cl)cccc1Nc1c(-c2ccncc2C#C[C@@]2(C)CCCN2C(=O)/C=C/CN(C)C)[nH]c2c1C(=O)NCC2` the remaining binding was 76% (PIK3CA E545K; binding, competition with immobilised ligand; 3 µM).
The remaining binding of `Cc1ccc(-c2c(/C=C(\C#N)C(=O)NC(C)C)n(CCCO)c3ncnc(N)c23)cc1` is reported as 100% (Phosphatidylinositol 4,5-bisphosphate 3-kinase catalytic subunit alpha isoform (PIK3CA, Homo sapiens, UniProt P42336, C420R); cell-free assay, competition with immobilised ligand; 1 µM).
For `CNC1C[S+]2CC[S+]3CC[S+](C1)[Ru-4]321([N]=C=S)[n]2c3ccc(OC)cc3c3c4c(c5cc(F)c[n+]1c5c32)C(=O)NC4=O` (centres unmarked), the remaining binding was 95% (PIK3CA H1047L; KinomeScan; 0.1 µM; baseline: untreated).
`Cc1cnc2nc1Nc1cccc(c1)COC/C=C/COCc1cc(ccc1OCCN1CCOCC1)N2` has a remaining binding of 88% (PIK3CA E542K; binding; 0.1 µM).
For `CNC(=O)C1CCN(c2cc(C)c(F)cc2NC(=O)c2ccc(-c3cc(O)ccc3C)c(C)c2)CC1`, the remaining binding was 97% (PIK3CA E545K; binding, competition with immobilised ligand; 1 µM).
`CC(=O)c1cnc(N)nc1N1CC[C@H]1c1nn2ccc(Cl)c2c(=O)n1-c1ccccc1` gave a remaining binding of 73% (PIK3CA Q546K; binding, competition with immobilised ligand; 10 µM).
